# Assay results from different studies.
# Protocols differ between the studies behind these lines. Several values in a cell are separate wells, animals, samples, runs or records. ± marks the error that the study gave.
SMILES,test,system,setting,scale,endpoint,result
C[C@H]1C[C@H]2CSC(N)=N[C@@]2(c2nc(NC(=O)c3ccc(OC(F)F)cn3)cs2)CO1,item: Aβ1-40,"healthy adults, plasma","15 mg once daily, day 4",relative to: placebo,percent change from baseline,-67.1%
NC(=O)c1cnc2[nH]ccc2c1N[C@@H]1[C@@H]2CC3C[C@H]1C[C@@](O)(C3)C2,"CD4+ effector memory T cells, flow cytometry","Caucasian humans, peripheral blood",20 mg single dose,relative to: baseline,percent change,0.03%
CC(C)NCC(O)c1ccc(O)c(O)c1 (stereo not shown),,"ventricular cardiomyocytes, C57BL/6 mouse","dose not given, 0.02 s",,sarcomere length,1.72 µm
CCOc1cc([C@@H](CS(C)(=O)=O)N2C(=O)c3cccc(NC(C)=O)c3C2=O)ccc1OC,,"Balb/c mice, oxazolone atopic dermatitis","day 20, unit not given",relative to: vehicle,ear thickness difference,-0.152
C[C@H](Oc1ccc(Br)cc1-c1ccon1)C(=O)O,"maximum voluntary grip contraction, handgrip dynamometry",healthy human,"50 mg, SAD",,difference from placebo,-4.97 kg
CN(CCC#N)C(=O)c1ccc(C2CCCCC2)cc1,hepatocyte stability,cryopreserved rat hepatocytes,1 µM,,hepatic clearance,47 mL/min/kg
NC/C(=C\F)COc1cccc(Cn2c(=S)[nH]c(=O)c3[nH]cnc32)c1,,"Mus musculus, carrageenan air pouch exudate","10 mg/kg, 12 h, λ-carrageenan-induced oedema",,exudate volume,3 mL and 2 mL and 3.2 mL and 2.8 mL and 2.6 mL and 3.3 mL
C=CCn1c(=O)c2cnc(Nc3ccc(N4CCN(C)CC4)cc3)nc2n1-c1ccc2c(n1)[C@@](O)(CC)CC2,,"NCI-H82 xenograft, BALB/c nude mice","oral, 80 mg/kg once daily x 21, day 20",,tumour volume difference,1450 ± 105 mm3
OC(CCN1CCCCC1)(c1ccccc1)C1CC2C=CC1C2 (stereo not shown),resting-state EEG,healthy elderly humans,"oral, 2 mg, eyes closed, LS mean",relative to: baseline,change in EEG Beta3-power Fz-Cz,4.3%
C[C@@H](NC(=O)N1C(=O)[C@H](Cc2ccnc(N)c2)[C@H]1C(=O)O)C1CCCCC1,,human,"iv infusion, 2.25 mg/kg/h, 24 h",relative to: baseline,time to aPTT Emax,96 h
CC(C)C[C@@H](C=O)NC(=O)[C@H](CC(C)C)NC(=O)[C@H](CC(C)C)NC(=O)OCc1ccccc1,item: Ub(G76V)-GFP,,10 µM,,degradation rate constant,0.0021 min⁻¹
N#Cc1ccc2c(c1)[C@H]1CCCN(C(=O)c3ccc4[nH]cnc4c3)[C@H]1C2,,"human, Phase II trial","oral, 80 mg once daily, day 28, adjusted mean, SE",,"change, HOMA-beta, from baseline",-0.5%
CSCCNc1nc(SCCC(F)(F)F)nc2c1ncn2[C@@H]1O[C@H](COP(=O)(O)OP(=O)(O)C(Cl)(Cl)P(=O)(O)O)[C@@H](O)[C@H]1O,light transmittance aggregometry,"human patients, platelet-rich plasma","dose not given, 1 h, together with: ADP 20 µM",relative to: patients,patients with IPA above 80%,2.5%
c1ccc(-c2n[nH]cc2-c2ccnc3ccccc23)nc1,"kinase binding, competitor, MIB/MS competition, item: KIN2",Candida albicans cell lysate,10 µM,relative to: DMSO,log2 fold change,1.47
O=C(O)CNC(=O)Cc1ccccc1,,"ventricular cardiomyocytes, C57BL/6 mouse","dose not given, 0.548 s",,sarcomere length,1.62 µm
C[C@@H]1CCC[C@H](n2cnc(-c3cc(Cl)ccc3-n3cc(Cl)nn3)cc2=O)c2cc(ccn2)-c2c(cnn2C(F)F)NC1=O,,rabbit plasma,"IC1.5× aPTT, Actin FS reagent",,concentration for aPTT prolongation,700 nM
N#Cc1ccn2c(-c3ccncc3)c(-c3ccc(F)cc3)nc2c1,"kinase binding, competitor, MIB/MS competition, item: RTK1",Candida albicans cell lysate,10 µM,relative to: DMSO,log2 fold change,-0.0261
COc1cc2cc(-c3ccc(CC(=O)Nc4cc(C(C)(C)C(F)(F)F)no4)cn3)cnc2cc1OC,RECIST v1.1,human RET-altered solid tumours,"11 50 mg tablets, phase I",,best overall response SD,78%
N#Cc1ccc2c(-c3ccncc3)c(-c3ccc(F)cc3)nn2c1,"kinase binding, competitor, MIB/MS competition, item: CAK1",Candida albicans cell lysate,1 µM,relative to: DMSO,log2 fold change,-0.00487
O=C(COCC(F)F)Nc1ccc(C2CCCCC2)cc1,liver microsome stability,mouse liver microsomes,1 µM,,hepatic clearance,83 mL/min/kg
Cc1n[nH]c2ccc(-c3cc(OC[C@@H](N)Cc4ccccc4)cnc3-c3ccoc3)cc12,"kinase binding, competitor, MIB/MS competition, item: IKS1",Candida albicans cell lysate,100 nM,relative to: DMSO,log2 fold change,-0.323
C[C@H]1O[C@@H](O[C@H]2CC[C@@]3(C)[C@@H](CC[C@]4(C)[C@@H]3C=C[C@]35OC[C@@]6(CCC(C)(C)C[C@H]63)[C@@H](O)C[C@]54C)[C@]2(C)CO)[C@H](O)[C@@H](O[C@@H]2O[C@H](CO)[C@@H](O)[C@H](O)[C@H]2O)[C@H]1O,,"Mus musculus, chronic-plus-binge ethanol-fed, liver","oral, 15 mg/kg/day, 168 h, dosed for 7 days",,hepatic total cholesterol,0.0844 mmol/g protein and 0.103 mmol/g protein and 0.0815 mmol/g protein and 0.0971 mmol/g protein and 0.0972 mmol/g protein

# Excerpt of the above:
SMILES,test,system,setting,scale,endpoint,result
C[C@H]1C[C@H]2CSC(N)=N[C@@]2(c2nc(NC(=O)c3ccc(OC(F)F)cn3)cs2)CO1,item: Aβ1-40,"healthy adults, plasma","15 mg once daily, day 4",relative to: placebo,percent change from baseline,-67.1%
NC(=O)c1cnc2[nH]ccc2c1N[C@@H]1[C@@H]2CC3C[C@H]1C[C@@](O)(C3)C2,"CD4+ effector memory T cells, flow cytometry","Caucasian humans, peripheral blood",20 mg single dose,relative to: baseline,percent change,0.03%
